Results from different studies.
Compare with care: the assays were run in different laboratories. Values joined by “and” are separate records of one study, mostly repeats; a detail may differ. ± gives the spread as reported.

Compound | target or system | test | system | conditions | how to read | quantity | result
N#C/C(=C\C1CC1)C(=O)N1CCC[C@@H]1Cn1nc(-c2ccc(Oc3ccccc3)cc2F)c2c(N)ncnc21 | – | – | – | 10-fold dilution, LC-MS, added: β-mercaptoethanol | – | dissociation half-life | 1.05 ± 0.06 min
Cc1cc(Nc2cc3ncccc3c(N[C@@H]3C[C@H]4CC[C@@H](C3)N4CCC#N)n2)n[nH]1 | – | – | moderate-severe ulcerative colitis patients | 270 mg, day 28, Mayo subscore, unit not given | baseline: baseline | change in stool frequency | -1
C[C@H](NC(=O)c1c(C(F)F)nn(C)c1Oc1cccc(C(F)(F)F)c1)c1ccc(C(=O)O)cc1 | – | irRECIST best overall response | patients with advanced tumours | 250 mg | – | patients with stable disease | 25%
CN(C)C(=O)Oc1cccc([N+](C)(C)C)c1 | – | – | rat cisatracurium-induced neuromuscular block | 0.00825 mg/kg | – | twitch response | 41.8% and 26.1% and 15.3% and 25.5% and 19.2%
CC(C)NCC(O)c1ccc(O)c(O)c1 (stereo not shown) | – | – | ventricular cardiomyocytes, C57BL/6 mouse | dose not given, 0.508 s | – | sarcomere length | 1.51 µm
N[C@@H](CC(=O)N1CCn2c(nnc2C(F)(F)F)C1)Cc1cc(F)c(F)cc1F | – | refers to: B-type natriuretic peptide | type 2 diabetes patients on metformin, plasma | oral, 100 mg once daily, 28 weeks | – | BNP | 17.9 pg/mL
CCO[C@H]1CCN(Cc2c(OC)cc(C)c3[nH]ccc23)[C@H](c2ccc(C(=O)O)cc2)C1 | – | refers to: PNH-type erythrocytes | PNH patients, blood | 50 mg/200 mg, week 2, mean | – | PNH red cell clone size | 65.6%
FC(F)(F)CN1CC(n2cc(Oc3ccn4nc(Cl)cc4n3)cn2)C1 | – | refers to: C26:0 fatty acid | Abcd1-/y mouse, brain | feed, 100 mg/kg/day, 7 months | – | reduction | 70%
Cc1n[nH]c2ccc(-c3cc(OC[C@@H](N)Cc4ccccc4)cnc3-c3ccoc3)cc12 | – | kinase binding, competitor, MIB/MS competition, refers to: SSK2 | Candida albicans cell lysate | 1 µM | baseline: DMSO | log2 fold change | -0.847
C=C1CC[C@H](OCCCNC(=O)CCOCCOCCOCCOCCOCCOCCOCCOCCOCCOCCOCCOCCOCCOCCOCCOCCOCCOCCOCCOCCOCCOCCOCCOCCOCCOCCOCCOCCOCCOCCOCCOCCOCCOCCOCCOCCNC(=O)CCN2C(=O)CC(SC[C@H](NC(=O)[C@H](CCCNC(=N)N)NC(=O)[C@@H]3CCCN3C(=O)[C@H](CCC(N)=O)NC(=O)[C@H](CC(C)C)NC(=O)[C@H](CCCCN)NC(=O)[C@H](C)NC(=O)[C@@H]3CCCN3C(=O)[C@@H]3CCCN3C(=O)[C@H](CCCCN)NC(=O)[C@H](CCCCN)NC(=O)[C@H](CO)NC(=O)[C@H](CCC(=O)O)NC(=O)[C@H](CCCCN)NC(=O)[C@H](CCCNC(=N)N)NC(=O)[C@H](CCC(N)=O)NC(=O)[C@H](CCC(N)=O)NC(=O)[C@@H](NC(=O)[C@H](CCCNC(=N)N)NC(=O)[C@H](CCC(N)=O)NC(=O)[C@H](Cc3c[nH]cn3)NC(=O)[C@H](CCC(=O)O)NC(=O)[C@@H]3CCCN3C(=O)[C@H](CO)NC(=O)[C@H](CC(C)C)NC(=O)[C@H](Cc3ccccc3)NC(=O)[C@H](CNC(=O)CCCCCCC)NC(=O)[C@H](CO)NC(=O)CN)C(C)C)C(=O)O)C2=O)C/C1=C/C=C1\CCC[C@]2(C)[C@@H]([C@H](C)CCCC(C)(C)O)CC[C@@H]12 (stereo partly shown) | – | refers to: carcass weight | C57BL/6J mice, LLC tumour-induced cachexia | 0.25 mg/kg daily | baseline: tumour-bearing vehicle | body weight loss | 7%
O=C(O)CNC(=O)Cc1ccccc1 | – | – | ventricular cardiomyocytes, C57BL/6 mouse | dose not given, 0.332 s | – | sarcomere length | 1.72 µm
c1ccc(-c2n[nH]cc2-c2ccnc3ccccc23)nc1 | – | kinase binding, competitor, MIB/MS competition, refers to: RIO2 | Candida albicans cell lysate | 10 µM | baseline: DMSO | log2 fold change | 0.397
Cc1cc(-c2nnc(N)nc2-c2ccc(F)cc2)cc(Cl)n1 | – | NanoString, refers to: NKT.Medi.IO signature | human mCRPC, peripheral blood | dose not given, 2 or 4 weeks | baseline: baseline, direction not given | GSVA score change | -0.185
C[C@H](Oc1ccc(Br)cc1-c1ccon1)C(=O)O | – | muscle velocity recovery cycles | human, tibialis anterior muscle | 1200 mg single dose, 3.5 h post-dose, frequency ramp, first response at 30 Hz | baseline: placebo | peak amplitude change | 7.5%
C[C@H]1O[C@@H](O[C@H]2CC[C@@]3(C)[C@@H](CC[C@]4(C)[C@@H]3C=C[C@]35OC[C@@]6(CCC(C)(C)C[C@H]63)[C@@H](O)C[C@]54C)[C@]2(C)CO)[C@H](O)[C@@H](O[C@@H]2O[C@H](CO)[C@@H](O)[C@H](O)[C@H]2O)[C@H]1O | – | – | chronic-plus-binge ethanol mice | oral, 10 mg/kg/day for 7 d, 168 h | – | body weight change | -0.5 g and -0.2 g and -0.3 g and -0.7 g and -0.6 g
CC1(C)CCC2(CC1)N[C@@H](C(=O)N[C@@H]1CC[C@@H](C(N)=O)OC1)[C@H](c1ccnc(Cl)c1F)[C@]21C(=O)Nc2cc(Cl)ccc21 | – | – | human, solid tumours | 120 mg/day, RECIST | baseline: patients | progressive disease | 33.3%

Compound | target or system | test | system | conditions | how to read | quantity | result
CC(CCc1ccc(O)cc1)NCCc1ccc(O)c(O)c1 (stereo not shown) | – | – | anaesthetised rat | intravenous infusion, 1 µg/kg/min for 15 min | baseline: baseline | heart rate change | 8.3%
COc1ncc(-c2nc3c(n2C(C)C)[C@H](c2ccc(Cl)cc2)N(c2cc(Cl)cn(C)c2=O)C3=O)c(OC)n1 | – | antileukemic activity, refers to: treatment failure, indeterminate cause | human, acute myeloid leukaemia | 250 mg, high-dose, RDE | – | best overall response | 26.7%
Cc1cc(/N=N/c2ccc(S(=O)(=O)Nc3ccccn3)cc2)c(N)cc1O | HBL-1 | – | – | 1 µM, 120 h | – | viability | 101%
C[C@]12CC[C@@H]3c4ccc(O)cc4C[C@@H](CCCCCCCCC[S+]([O-])CCCC(F)(F)C(F)(F)F)[C@H]3[C@@H]1CC[C@@H]2O (stereo partly shown) | – | – | female nude mouse LCC2 xenograft | 2.0 mg/kg, day 13, tamoxifen-resistant | – | tumour volume | 138 mm3 and 82.4 mm3 and 105 mm3 and 102 mm3 and 101 mm3 and 85.7 mm3 and 110 mm3
O=C(OC(C(F)(F)F)C(F)(F)F)N1CCN(Cc2cccc(Oc3ccccc3)c2)CC1 | – | PET blocking study | rhesus monkey, brain occipital cortex | intravenous, 0.3 mg/kg, compound pretreatment, added: [18F]T-401 tracer | – | volume of distribution | 1.37 mL/cm3
CCC(C)(C)C1CCc2[nH]c3ccccc3c(=O)c2C1 (stereo not shown) | Plasmodium yoelii | – | 17XL | 384-well | – | IC50 | 341 ± 28 nM
OC(CCN1CCCCC1)(c1ccccc1)C1CC2C=CC1C2 (stereo not shown) | – | resting-state EEG | healthy elderly humans | oral, 2 mg, eyes closed, LS mean | – | EEG Alpha1-power Pz-O2 | 15.1 µV²
CCCOc1ccc(-c2ccc(C#N)cc2)cc1 | – | proteomics | rat placenta | 0.01 µg/mL, low dose, fold change ≥1.5 | baseline: control | number of downregulated proteins | 317
CC(C)c1c(C(=O)Nc2ccccc2)c(-c2ccccc2)c(-c2ccc(F)cc2)n1CC[C@@H](O)C[C@@H](O)CC(=O)O | – | – | cynomolgus monkey, male, serum | 40 mg/kg or 25 mg/kg, day 86, 2064 h | – | total cholesterol | 92.9 mg/dL
C[C@@H]1COCCN1c1cc([C@]2(O)C[C@H]3CC[C@@H](C2)O3)c2cnn(-c3cc[nH]n3)c2n1 | – | – | mice, Granta-519 xenograft | 25 mg/kg once daily for 5 days, day 14 | – | tumour growth inhibition | 84.6 ± 0.97%
CC(=O)NCC(=O)NCC(=O)N[C@H](C(=O)N[C@@H](Cc1ccc(O)cc1)C(=O)N[C@@H](CO)C(=O)N[C@H]1CSSC[C@@H](C(=O)N[C@@H](CCCNC(=N)N)C(=O)N2CCC[C@H]2C(=O)N[C@@H](CCC(N)=O)C(=O)N[C@@H](CCCNC(=N)N)C(=O)NCC(=O)NCCC(=O)N[C@@H](CCCCNC(=O)CN(CC(=O)NCCCC[C@H](NC(=O)CCNC(=O)CNC(=O)[C@H](CCCNC(=N)N)NC(=O)[C@H](CCC(N)=O)NC(=O)[C@@H]2CCCN2C(=O)[C@H](CCCNC(=N)N)NC(=O)[C@@H]2CSSC[C@H](NC(=O)[C@H](CO)NC(=O)[C@H](Cc3ccc(O)cc3)NC(=O)[C@@H](NC(=O)CNC(=O)CNC(C)=O)[C@@H](C)O)C(=O)N[C@@H](Cc3c[nH]cn3)C(=O)N[C@@H](Cc3ccccc3)C(=O)NCC(=O)N[C@@H](C)C(=O)N[C@@H](CC(C)C)C(=O)N[C@@H]([C@@H](C)O)C(=O)N[C@@H](Cc3c[nH]c4ccccc34)C(=O)N[C@@H](C(C)C)C(=O)N2)C(N)=O)C(=O)CCN)C(N)=O)NC(=O)[C@H](C(C)C)NC(=O)[C@H](Cc2c[nH]c3ccccc23)NC(=O)[C@H]([C@@H](C)O)NC(=O)[C@H](CC(C)C)NC(=O)[C@H](C)NC(=O)CNC(=O)[C@H](Cc2ccccc2)NC(=O)[C@H](Cc2c[nH]cn2)NC1=O)[C@@H](C)O | – | – | healthy BALB/c mice | subcutaneous, 0.08 mg/kg, 6 d, single dose | – | reticulocytes | 6.7%
COc1cc2c(cc1-c1c(C)noc1C)ncc1[nH]c(=O)n([C@H](C)c3ccccn3)c12 | HBL-1 | – | – | 1 µM, 120 h | – | viability | 20.3%
COc1ccc2c(c1)CC[C@@H]1[C@@H]2CC[C@]2(C)[C@@H](NCCCCCCN3C(=O)C=CC3=O)CC[C@@H]12 | – | immunostaining | humanized mouse, SAH model, meningeal F4/80+ macrophages | dose not given | – | p-PKC level | 9.76 MFI and 8.11 MFI and 6.2 MFI
Cc1noc(C)c1-c1cc(C(O)(c2ccccn2)c2ccccn2)c2nc(C3CC3)[nH]c2c1 | – | refers to: CCR2 expression | human, peripheral blood | 3 mg, day 1, 1604 study, added: enzalutamide | – | maximum inhibition | 35%
O=C(COc1ccc(Cl)cc1)NC12CC(c3nnc([C@H]4C[C@@H](OC(F)(F)F)C4)o3)(C1)C2 | – | refers to: CHAC1 | PBMC ex vivo stimulated, human ALS patients | 100 mg, D28 predose | baseline: baseline | mRNA level change | -56.2%

Some of these lines once more:
Compound | target or system | test | system | conditions | how to read | quantity | result
O=C(OC(C(F)(F)F)C(F)(F)F)N1CCN(Cc2cccc(Oc3ccccc3)c2)CC1 | – | PET blocking study | rhesus monkey, brain occipital cortex | intravenous, 0.3 mg/kg, compound pretreatment, added: [18F]T-401 tracer | – | volume of distribution | 1.37 mL/cm3
N[C@@H](CC(=O)N1CCn2c(nnc2C(F)(F)F)C1)Cc1cc(F)c(F)cc1F | – | refers to: B-type natriuretic peptide | type 2 diabetes patients on metformin, plasma | oral, 100 mg once daily, 28 weeks | – | BNP | 17.9 pg/mL
N#C/C(=C\C1CC1)C(=O)N1CCC[C@@H]1Cn1nc(-c2ccc(Oc3ccccc3)cc2F)c2c(N)ncnc21 | – | – | – | 10-fold dilution, LC-MS, added: β-mercaptoethanol | – | dissociation half-life | 1.05 ± 0.06 min
